# Measured values collected from several papers.
# Protocols differ between the studies behind these lines. ± gives the spread as reported.
# BCL2L1: Bcl-2-like protein 1 (BCL2L1, Homo sapiens, UniProt Q07817)
# UniProt Q07817, sequence (whole entry, looked up): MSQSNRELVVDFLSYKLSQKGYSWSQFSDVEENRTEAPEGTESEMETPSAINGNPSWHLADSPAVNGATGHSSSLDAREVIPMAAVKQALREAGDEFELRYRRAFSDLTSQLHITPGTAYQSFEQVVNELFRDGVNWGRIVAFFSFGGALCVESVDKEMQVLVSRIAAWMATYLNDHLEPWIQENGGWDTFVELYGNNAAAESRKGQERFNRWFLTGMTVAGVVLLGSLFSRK
# Ribonucleoside-diphosphate reductase large subunit: Ribonucleoside-diphosphate reductase large subunit (Homo sapiens, UniProt P23921)
# UniProt P23921, sequence (whole entry, looked up): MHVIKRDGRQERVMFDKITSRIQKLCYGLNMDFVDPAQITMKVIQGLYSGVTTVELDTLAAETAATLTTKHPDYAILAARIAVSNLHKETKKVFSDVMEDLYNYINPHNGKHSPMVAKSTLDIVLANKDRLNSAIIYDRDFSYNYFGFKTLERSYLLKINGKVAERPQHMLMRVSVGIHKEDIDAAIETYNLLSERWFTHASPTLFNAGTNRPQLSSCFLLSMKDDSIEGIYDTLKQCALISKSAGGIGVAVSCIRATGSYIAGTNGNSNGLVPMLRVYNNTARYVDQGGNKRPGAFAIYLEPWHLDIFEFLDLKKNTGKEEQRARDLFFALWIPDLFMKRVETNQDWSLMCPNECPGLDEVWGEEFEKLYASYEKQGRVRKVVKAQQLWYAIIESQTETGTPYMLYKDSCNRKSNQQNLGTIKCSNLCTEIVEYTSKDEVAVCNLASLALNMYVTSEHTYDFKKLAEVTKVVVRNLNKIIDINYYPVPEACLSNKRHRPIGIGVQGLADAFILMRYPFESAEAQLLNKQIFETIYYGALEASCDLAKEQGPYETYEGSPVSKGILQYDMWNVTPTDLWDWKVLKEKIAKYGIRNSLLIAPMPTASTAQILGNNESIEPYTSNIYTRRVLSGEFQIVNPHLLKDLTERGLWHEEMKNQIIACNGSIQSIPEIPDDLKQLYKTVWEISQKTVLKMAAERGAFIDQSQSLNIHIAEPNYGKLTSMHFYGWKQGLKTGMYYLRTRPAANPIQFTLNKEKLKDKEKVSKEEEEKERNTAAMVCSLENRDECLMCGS
# Methyl-accepting chemotaxis protein Tlp3 sensing domain: Methyl-accepting chemotaxis protein Tlp3, sensing domain (Campylobacter jejuni, UniProt Q0P864)
# UniProt P00921, sequence (whole entry, looked up): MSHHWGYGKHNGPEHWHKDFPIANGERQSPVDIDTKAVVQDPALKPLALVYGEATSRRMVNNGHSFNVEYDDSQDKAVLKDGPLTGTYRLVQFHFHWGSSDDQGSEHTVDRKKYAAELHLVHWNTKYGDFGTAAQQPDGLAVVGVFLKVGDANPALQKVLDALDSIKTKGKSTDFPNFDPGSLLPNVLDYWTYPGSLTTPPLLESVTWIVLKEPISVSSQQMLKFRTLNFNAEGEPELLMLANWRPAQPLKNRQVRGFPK
# UniProt P0CG47, sequence (1-75, looked up): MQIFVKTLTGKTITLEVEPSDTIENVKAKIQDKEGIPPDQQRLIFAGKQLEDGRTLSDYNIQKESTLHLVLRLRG
# UniProt Q00987, sequence (whole entry, looked up): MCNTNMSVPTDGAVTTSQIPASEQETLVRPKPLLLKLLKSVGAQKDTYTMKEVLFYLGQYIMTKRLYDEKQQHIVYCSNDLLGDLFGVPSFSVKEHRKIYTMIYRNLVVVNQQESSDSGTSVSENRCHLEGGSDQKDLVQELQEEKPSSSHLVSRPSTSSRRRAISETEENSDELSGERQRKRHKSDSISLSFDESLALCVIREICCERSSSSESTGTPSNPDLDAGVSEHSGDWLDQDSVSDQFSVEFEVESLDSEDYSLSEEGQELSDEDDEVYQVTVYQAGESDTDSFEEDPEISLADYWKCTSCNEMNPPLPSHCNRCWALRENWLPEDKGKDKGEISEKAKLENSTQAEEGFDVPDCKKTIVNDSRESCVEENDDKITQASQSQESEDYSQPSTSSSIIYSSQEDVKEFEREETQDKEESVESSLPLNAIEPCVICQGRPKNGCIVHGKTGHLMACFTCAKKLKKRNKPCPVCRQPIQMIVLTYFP
# UniProt P06768, sequence (whole entry, looked up): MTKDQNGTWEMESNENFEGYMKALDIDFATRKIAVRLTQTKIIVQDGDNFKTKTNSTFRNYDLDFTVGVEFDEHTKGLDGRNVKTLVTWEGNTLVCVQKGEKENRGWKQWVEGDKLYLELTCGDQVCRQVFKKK
# UniProt P63073, sequence (whole entry, looked up): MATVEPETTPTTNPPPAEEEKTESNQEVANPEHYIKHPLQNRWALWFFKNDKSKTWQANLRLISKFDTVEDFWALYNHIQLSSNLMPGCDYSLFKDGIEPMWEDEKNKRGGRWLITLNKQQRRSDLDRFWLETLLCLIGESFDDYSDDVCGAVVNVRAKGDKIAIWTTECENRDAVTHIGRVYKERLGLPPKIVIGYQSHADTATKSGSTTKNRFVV
# UniProt Q15782, sequence (whole entry, looked up): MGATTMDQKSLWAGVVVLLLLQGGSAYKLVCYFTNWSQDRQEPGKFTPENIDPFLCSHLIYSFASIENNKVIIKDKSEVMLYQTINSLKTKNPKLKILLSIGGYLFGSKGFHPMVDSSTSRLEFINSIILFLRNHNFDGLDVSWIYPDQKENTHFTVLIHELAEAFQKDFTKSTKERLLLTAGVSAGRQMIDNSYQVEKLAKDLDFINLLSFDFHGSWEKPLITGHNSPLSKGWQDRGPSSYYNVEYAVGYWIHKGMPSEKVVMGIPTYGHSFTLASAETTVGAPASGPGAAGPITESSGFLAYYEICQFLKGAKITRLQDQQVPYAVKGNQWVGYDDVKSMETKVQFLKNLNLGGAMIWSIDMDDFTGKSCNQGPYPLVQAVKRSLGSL
# UniProt P08684, sequence (whole entry, unmodified, looked up): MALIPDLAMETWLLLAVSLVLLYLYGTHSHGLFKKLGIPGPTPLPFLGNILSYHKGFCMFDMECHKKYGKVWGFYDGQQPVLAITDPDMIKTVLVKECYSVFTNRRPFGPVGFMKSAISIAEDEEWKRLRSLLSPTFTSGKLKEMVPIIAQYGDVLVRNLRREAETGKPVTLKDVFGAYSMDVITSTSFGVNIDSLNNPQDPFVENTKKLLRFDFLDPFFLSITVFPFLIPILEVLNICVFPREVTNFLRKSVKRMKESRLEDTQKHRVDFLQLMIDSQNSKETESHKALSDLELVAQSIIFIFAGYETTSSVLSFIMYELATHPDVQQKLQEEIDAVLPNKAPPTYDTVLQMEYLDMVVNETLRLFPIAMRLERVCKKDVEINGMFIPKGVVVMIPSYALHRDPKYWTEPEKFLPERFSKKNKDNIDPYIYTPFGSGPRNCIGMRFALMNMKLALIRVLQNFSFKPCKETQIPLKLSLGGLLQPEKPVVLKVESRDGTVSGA
# UniProt O15530, sequence (whole entry, unmodified, looked up): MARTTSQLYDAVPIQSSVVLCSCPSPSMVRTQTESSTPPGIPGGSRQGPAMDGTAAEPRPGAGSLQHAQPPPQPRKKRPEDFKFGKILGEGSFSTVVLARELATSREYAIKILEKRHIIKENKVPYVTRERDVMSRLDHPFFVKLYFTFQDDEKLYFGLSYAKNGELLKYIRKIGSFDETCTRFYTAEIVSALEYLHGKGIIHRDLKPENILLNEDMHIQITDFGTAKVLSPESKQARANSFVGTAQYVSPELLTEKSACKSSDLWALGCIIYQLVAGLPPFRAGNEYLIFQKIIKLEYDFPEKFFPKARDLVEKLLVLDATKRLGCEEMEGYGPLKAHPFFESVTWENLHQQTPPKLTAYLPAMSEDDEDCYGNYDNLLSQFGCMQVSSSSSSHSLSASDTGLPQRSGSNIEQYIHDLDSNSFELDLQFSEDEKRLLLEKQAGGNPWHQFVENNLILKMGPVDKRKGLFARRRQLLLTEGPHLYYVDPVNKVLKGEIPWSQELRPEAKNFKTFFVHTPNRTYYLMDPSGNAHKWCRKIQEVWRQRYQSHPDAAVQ
# UniProt P42330, sequence (whole entry, looked up): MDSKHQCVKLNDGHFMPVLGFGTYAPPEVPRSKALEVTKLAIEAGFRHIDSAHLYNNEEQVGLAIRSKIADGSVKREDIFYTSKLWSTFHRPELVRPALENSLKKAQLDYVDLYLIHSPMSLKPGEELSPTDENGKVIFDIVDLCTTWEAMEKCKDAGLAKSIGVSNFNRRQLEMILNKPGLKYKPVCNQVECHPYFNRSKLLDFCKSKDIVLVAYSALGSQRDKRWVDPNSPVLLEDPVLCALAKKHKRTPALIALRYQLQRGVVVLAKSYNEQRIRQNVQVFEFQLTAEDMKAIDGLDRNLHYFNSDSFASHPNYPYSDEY
# UniProt Q06385, sequence (whole entry, looked up): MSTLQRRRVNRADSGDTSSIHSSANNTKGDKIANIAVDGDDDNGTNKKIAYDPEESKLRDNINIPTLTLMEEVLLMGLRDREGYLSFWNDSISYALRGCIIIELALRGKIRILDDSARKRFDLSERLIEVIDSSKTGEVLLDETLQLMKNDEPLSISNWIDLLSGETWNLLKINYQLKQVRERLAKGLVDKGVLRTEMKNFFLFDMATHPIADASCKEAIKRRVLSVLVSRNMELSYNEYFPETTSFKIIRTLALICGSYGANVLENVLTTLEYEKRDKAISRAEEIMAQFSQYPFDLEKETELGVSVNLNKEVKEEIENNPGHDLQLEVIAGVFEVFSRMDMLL
# UniProt P15090, sequence (whole entry, looked up): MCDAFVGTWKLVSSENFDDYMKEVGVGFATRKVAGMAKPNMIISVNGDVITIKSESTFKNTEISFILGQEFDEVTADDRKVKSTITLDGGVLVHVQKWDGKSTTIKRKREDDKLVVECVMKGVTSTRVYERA
Substance,target,test,test system,conditions,Kd
c1ccc2nc3ccccc3cc2c1,HIV-1 nucleocapsid-SL3 RNA complex,"binding, ESI-FTMS",,pH 7.5,14.5 ± 1.2 µM
CC(=O)[C@H]1CC[C@H]2[C@@H]3CCC4=CC(=O)CC[C@]4(C)[C@H]3CC[C@]12C,"Cytochrome P450 3A4 (CYP3A4, Homo sapiens, UniProt P08684, S18F)",,POPC Nanodiscs,"pH 7.4, 37 °C, second binding step",14 µM
FGAQLNRIAEDF,BCL2L1,yeast display titration,peptide,"2 h, pH 8.0, room temperature",0.0021 ± 0.0002 µM
O=C(O)C(F)(F)C(F)(F)C(F)(F)C(F)(F)C(F)(F)C(F)(F)C(F)(F)C(F)(F)C(F)(F)C(F)(F)C(F)(F)C(F)(F)F,"FABP4 (Homo sapiens, UniProt P15090)","ligand displacement, fluorescence",,,< 1 µM
IGAQFGRFADDF,BCL2L1,yeast display titration,peptide,"2 h, pH 8.0, room temperature",0.0013 ± 0.0003 µM
CCCCCCCCCCCCCCCC(=O)OC[C@H](COP(=O)(O)OC1[C@H](O)[C@H](O)C(OP(=O)(O)O)[C@H](O)[C@H]1O)OC(=O)CCCCCCCCCCCCCCC (stereo partly drawn),"Vacuolar protein sorting-associated protein 74 (VPS74, Saccharomyces cerevisiae, UniProt Q06385)",surface plasmon resonance,DOPC vesicles 3 mol% lipid,"pH 7.5, 25 °C",8.9 ± 0.3 µM
Oc1coccc1=S,"Carbonic anhydrase 2, Co(II)-substituted (CA2, Bos taurus, UniProt P00921)","binding, UV-vis titration",,"pH 7.5, deprotonated form",320 µM
O=C(NNC(=O)c1ccccc1O)c1cccnc1,Ribonucleoside-diphosphate reductase large subunit,"binding, fluorescence",,pH 8,60.6 µM
CC(=O)N[C@@H](Cc1c[nH]c2ccccc12)C(=O)N[C@@H](CCCCN)C(=O)N[C@@H](CCCCN)C(=O)N[C@@H](CC(C)C)C(=O)N[C@@H](CC(C)C)C(=O)N[C@@H](CCCCN)C(=O)N[C@@H](CC(C)C)C(=O)N[C@@H](CC(C)C)C(=O)N[C@@H](CCCCN)C(=O)N[C@@H](CCCCN)C(=O)N[C@@H](CC(C)C)C(=O)N[C@@H](CC(C)C)C(=O)N[C@@H](CCCCN)C(=O)N[C@@H](CC(C)C)C(=O)N[C@@H](C)C(=O)NCC(N)=O,HIV-1 TAR hairpin RNA,competitive fluorescence anisotropy,,"pH 7.4, 20 °C, with: rhodamine-Rev peptide",0.002 ± 0.0003 µM
CC(=O)N[C@H]1[C@H](O[C@H]2[C@H](O)[C@@H](NC(C)=O)C(O)O[C@@H]2CO)O[C@H](CO)[C@@H](O[C@@H]2O[C@H](CO)[C@@H](O)[C@H](O)[C@H]2NC(C)=O)[C@@H]1O (stereo partly drawn),"Chitinase-3-like protein 2 (CHI3L2, Homo sapiens, UniProt Q15782)",tryptophan fluorescence,,pH 7.5,32 ± 4 µM
N=C(N)NCCC[C@H](NC(=O)c1ccc2c(c1)C(=O)OC21c2ccc(O)cc2Oc2cc(O)ccc21)C(=O)N[C@@H](CO)C(=O)N[C@@H](CCCNC(=N)N)C(=O)N[C@@H](CO)C(=O)N[C@@H](CCCNC(=N)N)C(=O)N[C@@H](CO)C(=O)N[C@@H](CCCNC(=N)N)C(=O)N[C@@H](CO)C(=O)N[C@@H](CCCNC(=N)N)C(=O)N[C@@H](CO)C(=O)N[C@@H](CCCNC(=N)N)C(=O)N[C@@H](CO)C(=O)N[C@@H](CCCNC(=N)N)C(=O)N[C@@H](CO)C(=O)N[C@@H](CCCNC(=N)N)C(=O)N[C@@H](CO)C(=O)O,SRPK1 ΔN,"peptide binding, fluorescence",,with: fluorescein-labelled Arg-Ser peptide,0.36 ± 0.08 µM
CC1=C(/C=C/C(C)=C/C=C/C(C)=C/CO)C(C)(C)CCC1,"Retinol-binding protein 2 (Rbp2, Rattus norvegicus, UniProt P06768)","binding, fluorescence titration",,"pH 7.4, 25 °C",0.01 ± 0.003 µM
CCC[C@H](N)C(=O)O,"Methyl-accepting chemotaxis protein Tlp3 (Campylobacter jejuni, UniProt Q0P864)","binding, ITC",,melting temperature,1760 ± 47 µM
YAQELQRYGDET,BCL2L1,yeast display titration,peptide,"2 h, pH 8.0, room temperature",0.0052 ± 0.0005 µM
Cn1c[n+]([C@@H]2O[C@H](COP(=O)(O)OP(=O)([O-])OP(=O)(O)OC[C@H]3O[C@@H](n4cnc5c(=O)[nH]c(N)nc54)[C@H](O)[C@@H]3O)[C@@H](O)[C@H]2O)c2nc(N)[nH]c(=O)c21,"Eif4e (Mus musculus, UniProt P63073)",differential scanning fluorimetry,,,14 µM
OCc1ccc(-c2nn(Cc3ccccc3)c3ccccc23)o1,"soluble guanylate cyclase beta subunit, N-terminal fragment (Manduca sexta, UniProt O77106)","binding, CO titration, global fit",,"0.1 µM protein, 10 cm cuvette",9.3 ± 0.8 µM
O=P(O)(O)OC1[C@H](O)[C@H](OP(=O)(O)O)C(OP(=O)(O)O)[C@H](OP(=O)(O)O)[C@H]1O (stereo partly drawn),"3-phosphoinositide-dependent protein kinase 1, PH domain (PDPK1, Homo sapiens, UniProt O15530, T513E)","binding, FRET competition",,,0.32 ± 0.07 µM
COc1ccc(-c2ccoc2)c(/C=N/NC(=O)c2ccccc2O)c1O,Ribonucleoside-diphosphate reductase large subunit,"binding, fluorescence",,pH 8,31.5 µM
CC(=O)N[C@@H](CC(C)C)C(=O)N[C@@H](CCCCN)C(=O)N[C@@H](CCCCN)C(=O)N[C@@H](CC(C)C)C(=O)N[C@@H](CC(C)C)C(=O)N[C@@H](CCCCN)C(=O)N[C@@H](CC(C)C)C(=O)N[C@@H](Cc1c[nH]c2ccccc12)C(=O)N[C@@H](CCCCN)C(=O)N[C@@H](CCCCN)C(=O)N[C@@H](CC(C)C)C(=O)N[C@@H](CC(C)C)C(=O)N[C@@H](CCCCN)C(=O)N[C@@H](CC(C)C)C(=O)N[C@@H](C)C(=O)NCC(N)=O,HIV-1 TAR hairpin RNA,competitive fluorescence anisotropy,,"pH 7.4, 20 °C, with: rhodamine-Rev peptide",0.082 ± 0.01 µM
CC(C)[C@H](N)C(=O)O,Methyl-accepting chemotaxis protein Tlp3 sensing domain,"binding, thermal shift",,"25 °C, unfolding equilibrium constant, ITC enthalpy",372 ± 87 µM
Nc1nc2c(ncn2[C@@H]2O[C@H](COP(=O)(O)OP(=O)(O)OP(=O)(O)O)[C@@H](O)[C@H]2O)c(=O)[nH]1,"E3 ubiquitin-protein ligase Mdm2, RING domain (MDM2, Homo sapiens, UniProt Q00987)",ATP binding,,GST-fused residues 400-491,> 200 µM
CC[N+](CC)(CC)CC,"maxi-KCa channel, rat","fast channel block, blocker, single-channel recording at +30 mV",,"external application, DTX-I substate, with: internal DTX-I 460 nM",257 ± 10 µM
CC(=O)N[C@@H](CC(C)C)C(=O)N[C@@H](CCCCN)C(=O)N[C@@H](CCCCN)C(=O)N[C@@H](Cc1c[nH]c2ccccc12)C(=O)N[C@@H](CC(C)C)C(=O)N[C@@H](CCCCN)C(=O)N[C@@H](CC(C)C)C(=O)N[C@@H](CC(C)C)C(=O)N[C@@H](CCCCN)C(=O)N[C@@H](CCCCN)C(=O)N[C@@H](CC(C)C)C(=O)N[C@@H](CC(C)C)C(=O)N[C@@H](CCCCN)C(=O)N[C@@H](CC(C)C)C(=O)N[C@@H](C)C(=O)NCC(N)=O,HIV-1 RRE hairpin RNA,competitive fluorescence anisotropy,,"pH 7.4, 20 °C, with: rhodamine-Rev peptide",0.0059 ± 0.0004 µM
Nc1ncnc2c1ncn2[C@@H]1O[C@H](COP(=O)(O)OP(=O)(O)O)[C@@H](O)[C@H]1O,kinase,"binding, surface plasmon resonance",,"25 °C, 3% DMSO",41 ± 2 µM
Ristocetin,"Polyubiquitin-B, residues 1-75 fusion (UBB, Homo sapiens, UniProt P0CG47)","binding, SPR",,"25 °C, ubiquitin fusion peptide",2 ± 0.3 µM
CC(C)C[C@H](N)C(=O)O,Methyl-accepting chemotaxis protein Tlp3 sensing domain,"binding, thermal shift zero heat capacity",,at Tm sensing domain,875 ± 152 µM
O=C1Nc2ccccc2/C1=N/NC(=O)c1ccccc1O,Ribonucleoside-diphosphate reductase large subunit,"binding, fluorescence",,pH 8,15 µM
O=c1c(O)c(-c2ccc(O)cc2)oc2cc(O)cc(O)c12,"chemokine CCL2, human and mouse",fluorescence quenching,,summary over orthologs and variants,25 µM
O=C(N/N=C/c1cc(-c2ccsc2)ccc1O)c1ccccc1O,Ribonucleoside-diphosphate reductase large subunit,"binding, fluorescence",,pH 8,53.8 µM
NC(=O)c1ccc[n+]([C@@H]2O[C@H](COP(=O)([O-])OP(=O)(O)OC[C@H]3O[C@@H](n4cnc5c(N)ncnc54)[C@H](O)[C@@H]3O)[C@@H](O)[C@H]2O)c1,"AKR1C3 (Homo sapiens, UniProt P42330)",tryptophan fluorescence titration,,"pH 7.0, 25 °C",170 ± 26 µM
